Published values from different studies.
Numbered parts are unrelated; each lists some results of a single study. Substitutions count along the parent as printed.

Set 1
Target: Interferon regulatory factor 5, full length, phosphomimetic (IRF5, Homo sapiens, UniProt Q13568-2, residues 1-514, K96S/S451D/S453D/S456D/S462D)
Method: protein-binding microarray
Form: double-stranded DNA, one strand shown
Matrix: in vitro
Concentration: 250 nM
Notes: 60-bp whole probe
With: salmon DNA 0.4 mg/ml
Reference: random background probes
Reading: higher = stronger binding
Measurement: log fluorescence
Constant ends, left off below: GCCTAGCAC … GTCTTGATTCGCTTGACGCTGCTG
GACGGTAGCGACTTTCGGGACGTGCTA: 4.85 z-score
CTCATTCTCTGCTTCTGTATGTGCTAG: 0.733 z-score
CCACTGCAAAAACATCCTGGGTGCTAG: 0.105 z-score
TTAGGTTTCGACACTGGCTTAGTGCTA: 5.59 z-score
GACGATATCGGTACTGGAGACGTGCTA: 3.09 z-score
TTAGATCTCAGACTGGCTTAGTGCTAG: -0.332 z-score
GACGGTTTCGGATTCGGGACGTGCTAG: 4.78 z-score
GGCTTTTTAATGAATGAAGAGGTGCTA: -0.178 z-score
TCACGTCTGGGTGTTTTACTGTGCTAG: -0.0168 z-score
GACGGTTCCCTTCTCCTGACGTGCTAG: 0.0375 z-score
TCAGGTTAAAATTTTGCACTGTGCTAG: 0.107 z-score

Set 2
Substance: PhoQ, residues 284 288 289 292 302 303 AANNSF
Method: Sort-seq
Measured: YFP reporter
Matrix: E. coli
Notes: PhoQ-PhoP variant library
With: 10 µM Mg2+
Reference: high Mg2+ state
Reading: higher = stronger signaling
Measurement: fold induction
PhoP, residues 12 14 15 18 19 LHTVL (Escherichia coli, UniProt P23836): 24.4
PhoP, residues 12 14 15 18 19 TQAML (Escherichia coli, UniProt P23836): 26.4
PhoP, residues 12 14 15 18 19 NQCAL (Escherichia coli, UniProt P23836): 13.9

Set 3
Target: Histone acetyltransferase KAT6A, winged helix 2, GST fusion (KAT6A, Homo sapiens, UniProt Q92794, residues 85-181)
Method: protein binding microarray
Form: double-stranded DNA, one strand shown
Matrix: in vitro
Concentration: not given
Notes: 8-mer, flanks averaged, mean of 2 arrays, mostly near background
Reference: not given
Reading: higher = stronger binding
Measurement: E-score
Residues (chain): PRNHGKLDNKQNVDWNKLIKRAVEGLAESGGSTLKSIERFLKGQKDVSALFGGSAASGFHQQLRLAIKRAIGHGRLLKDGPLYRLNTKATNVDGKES
CAATCTTC: 0.153
CATATAAA: 0.0828
CATTCTCG: -0.136
AATACCGC: 0.144
AGAATTAC: 0.0521
GTATCCTA: 0.00535
GGGCCCCA: 0.108
CCGCTGGC: 0.177
GCAATCTA: -0.0677
AGGGCCAT: -0.0616
ATGGAGCG: 0.129
GCAGAGTA: 0.0772
TAGTTTCA: -0.0619
ATTGCCAG: -0.0217
ATCATGCA: -0.169

Set 4
Target: CCND2, cyclin fold, Cln2 fusion (human)
Method: yeast growth competition, sequencing
Matrix: yeast
Notes: weak parent motif
Reference: not given
Reading: higher = stronger binding
Measurement: normalised enrichment score
Parent: CUX1 docking peptide (human); SRIRRELFIEEIQ
SRIRKELFIEEIQ [R5K]: 0.392
SRIRRALFIEEIQ [E6A]: 0.233
SRIRRELFIEAIQ [E11A]: 0.489
SAIRRELFIEEIQ [R2A]: 0.00812
ARIRRELFIEEIQ [S1A]: 0.67
SRIRRELFIEEIA [Q13A]: -0.623
SRIRRELFIEEAQ [I12A]: -0.329

For quick reference, copied from above (set 2):
PhoP, residues 12 14 15 18 19 LHTVL (Escherichia coli, UniProt P23836): 24.4
PhoP, residues 12 14 15 18 19 TQAML (Escherichia coli, UniProt P23836): 26.4
PhoP, residues 12 14 15 18 19 NQCAL (Escherichia coli, UniProt P23836): 13.9
